Measured values collected from several papers.
A part holds a random share of what one study measured. Positions count from the first letter of the parent shown.

Set 1
Target: RNA binding protein fox-1 homolog 2, RRM domain, GST-SBP tag (RBFOX2, Homo sapiens, UniProt O43251-10, residues 100-194)
Method: RNA Bind-n-Seq
Molecule type: RNA
Matrix: in vitro
Tested at: 365 nM
Notes: natural RNA segment, single round, ends assumed
Relative to: no-protein control
Direction: higher = stronger binding
Endpoint: RBNS enrichment (R)
Shared flanks, not repeated: GGGAGUUCUACAGUCCGACGAUC … UGGAAUUCUCGGGUGCCAA
Target sequence (chain): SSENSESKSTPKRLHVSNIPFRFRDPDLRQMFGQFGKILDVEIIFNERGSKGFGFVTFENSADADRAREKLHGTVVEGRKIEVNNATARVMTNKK
CAAAGAAUUUACUUACUUUAUGUUAAUUACGGGCAUGAAGCAAAAGGUUUUCUUUAAAAAAAAAAAAAAGUGCAGUGAUGUAGGGCUGUGGUUAGUUAACCGUACUGAGU: 0.508
GUUGGGGGGCAGUUGGUUUGGUCUUCCUUCUAGGAGUAUGAGGGCAGCCUGUCUAGUUUGUAGAUCCCCUUGGUUGCUGGAUAAAGGAUGAUAAUAAAGUGUCUUUCUCU: 0.641
GGUCAACACUUCCUGCUGCAUUUCCUUCCCUUUGCACAGCUUGAAGAAAUAGAGUAGACAGAAUCACACAUCAUGUGGUGGGCAGAUGGAAAUAAGUACCUGUGGUGAAC: 0.903
ACCAGGAGGAUCUGCGCACGGUGCACAGCCCACCAGAGCACUACAGCCUUUUAUUGAGUGGGGCAAGUGCUGGGCUGUGGUCGUGCCCUGACAGCAUCUUCCCCAGGCAG: 0.516
UGGUUAAUUAAAACUGUGAAUUUUUGUGUAACUAGUUUCAGAGUGUUAUUAAAUAUGAUAAAAUGCAGUAAGUCUUUUGGUCUCCUGUCUCAUUUUGAACAUGGUUCACG: 0.379
UCAAAUAAACCAAUGAAAAAGCUUUGCCGAUGAUAAUAAAAGAUGCUCACACUUUCAUAGCGCUUGCUACGUGACAAGUACCGCUGUAAAUAAAUGCCUCAUGAAAACCA: 0.58
AAGAAAAACAUGUCUUUUCAAAAUGAGAGGCUUUCAUUGAAGAAAAGAAAAAAACAACAGUUAAAAGUUUUGGCUCUCUGUUUCAUUUUUUUCCAUUAAGAAAAAAAAAA: 0.9
UAAUUUAACGUGGAAUUCCUUCAUUUCAUAAGAACCUCAAAAUAAUGGUGAUACAUUCUAGCCUUAAGACAUUUGAAUUGCCGGUUGUUGAGGUGAAUUUUGUUUGUCAU: 0.937
CUCUCUGGGACUUUUAAAGUUUUAUUACUAUUAUUGCUAAUGUAUGAUUAUGGUCAGAGACUUUCAACCCACCCCUUCCUGCCUACCCCUGGCUUUUCCUCACAAAGAAU: 0.556
CUUUGUGCAGCAAAGAUCCCCGUGCAGGUCACAGCCUGAUUUGUGGCCAGGCUGGACAAAUUCCUGAGGCACAACUUGGCUUCAGUUCAGAUUUCAAGCUGUGUUGGUGU: 1.15
ACUGAAAGCAAGGACACGAGAUCUAGGUGAUGACCGACGCGAAUGAAGCACCCGUGACUGCAACCCGGGCGGUUGUUGCUAGAGCCUUGCCAGUCCUUGGAAGAAGAGUU: 0.995
UGAUAUAGUGUUACUGUGAGCCUGUCAGUAGUGGGUACCAAUCUUUUGUGACAUAUUGUCAUGCUGAGGUGUGACACCUGCUGCACUCAUCUGAUGUAAAACCAUCCCAG: 0.295

Set 2
Target: JUND, bZIP domain (human)
Method: DHFR protein complementation
Matrix: yeast
Notes: single substitutions, most at no-binding floor
Relative to: wild-type JUN-FOS pair
Direction: higher = stronger binding
Endpoint: binding fitness
Starting sequence: JUN, bZIP domain (human); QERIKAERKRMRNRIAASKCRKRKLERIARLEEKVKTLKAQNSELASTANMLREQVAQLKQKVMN; partner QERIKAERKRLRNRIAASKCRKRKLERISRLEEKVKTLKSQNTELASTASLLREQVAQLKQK
K36R: -0.556 natural log
E44N: -1.02 natural log
A49E: -1.12 natural log
K36G: -1.18 natural log
S47K: -0.312 natural log
R30N: -0.771 natural log
K39N: -0.817 natural log
I28L: -0.91 natural log
A57N: -0.648 natural log
E54M: -0.947 natural log
K36H: -0.899 natural log
M51G: -0.796 natural log
T48E: -0.455 natural log
Q55I: -1.16 natural log
S43E: -0.365 natural log
A57L: -1.07 natural log
M51W: -0.961 natural log
S47V: -0.504 natural log
M51V: -0.735 natural log
K39R: -0.628 natural log
S47T: -0.612 natural log

Set 3
Target: Histone acetyltransferase KAT6A, both winged helices, GST fusion (KAT6A, Homo sapiens, UniProt Q92794, residues 1-181)
Method: protein binding microarray
Molecule type: double-stranded DNA, one strand shown
Matrix: in vitro
Tested at: not given
Notes: 8-mer, flanks averaged, mean of 2 arrays, mostly near background
Relative to: not given
Direction: higher = stronger binding
Endpoint: E-score
Residues (chain): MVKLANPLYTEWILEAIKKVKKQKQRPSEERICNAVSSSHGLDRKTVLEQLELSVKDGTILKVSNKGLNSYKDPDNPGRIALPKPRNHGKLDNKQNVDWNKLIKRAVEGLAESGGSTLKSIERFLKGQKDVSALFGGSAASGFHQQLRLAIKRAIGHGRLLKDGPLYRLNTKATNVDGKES
AGGGCAGG: -0.107
CACTCATG: -0.0607
ACAACGCT: 0.0362
AGACTGCA: -0.167
GCTCGCCA: 0.0587
CCCCATCG: 0.0338
GCCTCCGA: 0.00751
CCTTGTAC: -0.108
AAGAGCCC: -0.0865
ACCTTTAC: -0.00877
ATTACGGA: 0.236
ATGCCCAT: -0.211
ATAAGAGA: -0.125
AACACTAC: -0.0244
AGCACGGA: 0.123
CGTGGCAC: 0.0904
CTTCAACA: -0.0611

Set 4
Target: Interferon regulatory factor 5, full length, phosphomimetic (IRF5, Homo sapiens, UniProt Q13568-2, residues 1-514, S451D/S453D/S456D/S462D)
Method: protein-binding microarray
Molecule type: double-stranded DNA, one strand shown
Matrix: in vitro
Tested at: 940 nM top
Notes: 60-bp whole probe
Together with: salmon DNA 0.4 mg/ml
Relative to: random background probes
Direction: higher = stronger binding
Endpoint: fitted relative affinity
Shared flanks, not repeated: GCCTAGCAC … GTCTTGATTCGCTTGACGCTGCTG
TCATCTTTGCTTCACCCACTGTGCTAG: 1.04 z-score
GACGATTTCGGGACCGGAGACGTGCTA: 0.168 z-score
TTAGATCTCAATATCGATTAGTGCTAG: 0.661 z-score
TTAGGTCTCCTACTGCGTTAGTGCTAG: -0.399 z-score
ACTTAAACTAGAAACTGACTTGTGCTA: 0.289 z-score
TTAGGTTTCGGTTCTGGTTAGTGCTAG: 14.5 z-score
TGAGATATCAGTCTCGATTAGTGCTAG: 2.49 z-score
CCAGTGCTTGCTCCCCTGCAGTGCTAG: -0.482 z-score
TTGTAGATGCCTTTCTCTTGGTGCTAG: -0.476 z-score
GATGAACTGAGTTTCGAGACGTGCTAG: 3.04 z-score
CTGGAGGTTGGGCAAGGCCCGTGCTAG: -0.765 z-score
TAATTTTTACTTTCTGAATGGTGCTAG: 1.6 z-score
TCACCTTTGCCTCATCTTACTGTGCTA: 1.35 z-score
GACGGTTTCGGATATCGGGACGTGCTA: 7.45 z-score
TTAGATATCAGACTGGAATAGTGCTAG: -0.353 z-score
TTAGCTTCCAGTTTCGATTAGTGCTAG: 8.39 z-score
GACGAAGTGGGGTTTCGAGACGTGCTA: 2 z-score
GACGATATCAGTTTCTAGACGTGCTAG: 1.22 z-score
TTAGAACTGAGTATCAATTAGTGCTAG: 0.428 z-score
TCACCTTTCTCAACCTCACTGTGCTAG: 1.64 z-score
TTAGGGTTCGGTATCGGTTAGTGCTAG: 5 z-score
GACGAATTCAGTTTCGAGACGTGCTAG: 4.35 z-score
TTAGATCTGGGGTTTCGATTAGTGCTA: 5.13 z-score
GACGATTTCAGTTTCGAGACGTGCTAG: 5.12 z-score
TCATTTCTTTAACTCATACTGTGCTAG: 1.36 z-score

Set 5
Target: ABI1, truncated, D143A, DHFR fusion (Arabidopsis thaliana)
Method: DHFR PCA, deep sequencing
Matrix: yeast
Notes: methotrexate growth selection, single substitutions
Together with: (+)-ABA 1.4 µM
Relative to: wild-type fitted maximum
Direction: higher = stronger binding
Endpoint: relative binding score
Starting sequence: PYL1, truncated, DHFR fusion (Arabidopsis thaliana); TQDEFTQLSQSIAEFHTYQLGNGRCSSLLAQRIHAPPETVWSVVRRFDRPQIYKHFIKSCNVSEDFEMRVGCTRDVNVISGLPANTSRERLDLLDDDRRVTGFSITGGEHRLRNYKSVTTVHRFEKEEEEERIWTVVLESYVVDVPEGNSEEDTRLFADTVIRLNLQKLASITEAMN; partner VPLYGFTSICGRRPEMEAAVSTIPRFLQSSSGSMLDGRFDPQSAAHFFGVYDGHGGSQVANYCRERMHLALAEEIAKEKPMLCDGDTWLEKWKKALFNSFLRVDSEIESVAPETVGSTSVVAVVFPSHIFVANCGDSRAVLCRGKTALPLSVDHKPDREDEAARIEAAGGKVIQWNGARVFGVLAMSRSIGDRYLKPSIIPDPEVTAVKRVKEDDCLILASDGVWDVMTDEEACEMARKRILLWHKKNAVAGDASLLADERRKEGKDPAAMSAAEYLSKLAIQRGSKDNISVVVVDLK
T101P: 3.61%
F103V: -7.33%
E125F: 62.7%
C60M: -3.28%
Q31R: 25.3%
G71Y: -6.43%
L166G: 6.27%
I162Q: 7.02%
G23I: 1.95%
R69L: 23.3%
L138Q: 10%
I12W: 9.38%
I105W: -4.29%
E131I: 52.3%
E127Y: 49.1%
E129A: 74.8%
Y18V: 4.24%
D153Y: 1.64%
V143Y: -19.6%
E152S: 37.5%
I33E: -3.24%
L164G: 17.8%
G23K: 37.3%
V136L: 49.5%
Y53V: -0.363%
